Published values gathered from unrelated publications.
Values joined by “and” are separate records of one study, mostly repeats; a detail may differ. ± marks the error that the study gave.

CCOC(=O)CSc1nc(-c2ccc(Cl)cc2)c2c(NC(=O)c3ccccc3)nnc-2[nH]1  cell growth (RXF 393; SRB; 10 µM, NCI60 single-dose screen; reference: untreated): 119%
C[C@H](CS)C(=O)N1CCC[C@H]1C(=O)O  NOX2 and NOX4 protein levels (HUVEC; western blot; 10, 100, 1 µM, together with: angiotensin II): decreased
O=C(O)CCc1cccc(O)c1  transepithelial electrical resistance (Caco-2/THP-1 co-culture; TEER; concentration not given, together with: LPS 50 ng/mL; reference: control): 73.8 ± 6.2%
COc1cnc2cccc(N3CCc4c(cc(Cn5ccnc5C)cc4-c4cn(C)nc4C(F)(F)F)C3=O)c2c1  EC50 (NUGC-3; cell growth, inhibitor; 120 h): 31.3 nM
COc1cc2ccc(=O)oc2cc1OC  inhibition (THP-1; pyroptotic LDH release; 2 µM, 40 min, together with: LPS then nigericin): -6.53%
C=CC1=C(C)c2cc3[n-]c(cc4nc(cc5[n-]c(cc1n2)c(C)c5C=C)C(C)=C4CCC(=O)O)c(CCC(=O)O)c3C.[Zn+2]  fold change (SH-SY5Y; RNA-seq, measured: IL4R mRNA; 5 µM, 5 h; reference: untreated cells): 2.37
COc1cc2ncnc(Nc3ccc(Oc4ccccc4)c(C)c3C)c2cc1OC.Cl  Bliss synergy score (Calu-6 (KRAS Q61K); resazurin; concentration not given, 72 h, together with: trametinib; direction not given): 26.4%
Cc1cc(Nc2ncc(Cl)c(Nc3ccccc3S(=O)(=O)C(C)C)n2)c(OC(C)C)cc1C1CCNCC1  log2 fold change (CLB-BAR; phosphoproteomics LC-MS/MS, measured: GNAS phosphorylation; 200 nM, 60 min; reference: untreated): -1.63
CCc1c(-c2ccccc2)c(-c2ccccc2)nn1-c1ccccc1-c1cccc(OCC(=O)O)c1  mRNA level (mouse osteoclasts; RT-qPCR, measured: Lilrb4a; 1 µM, unit not given, together with: M-CSF plus RANKL; reference: bone marrow macrophages): 0.171 and 0.0825 and 0.155
CC/C(=N\NC(=O)NCc1cccc(O)c1)c1ccc(O)c(C)c1O  protein level (SK-OV-3; Western blot, measured: phospho-YAP; 10 µM, 3 h, 3D gellan gum culture, unit not given; reference: total YAP): 0.18 ± 0.12
CC(=O)Oc1c(C)c(C)c2c(c1C)CCC(C)(CCC[C@H](C)CCC[C@H](C)CCCC(C)C)O2 (stereo partly shown)  inhibition (THP-1; pyroptotic LDH release; 2 µM, 40 min, together with: LPS then nigericin): 4.01%
CS(=O)(=O)Nc1ccc(C(=O)O[C@@H](Cc2c(Cl)c[n+]([O-])cc2Cl)c2ccc(OC(F)F)c(OCC3CC3)c2)cc1OCC1CC1  EC50 (HEK293T ATF4-FLuc reporter; ATF4 reporter gene, activator, luciferase reporter): > 9960 nM
COc1cccc2c1C(=O)c1c(O)c3c(c(O)c1C2=O)C[C@@](O)(C(=O)CO)C[C@@H]3O[C@H]1C[C@H](N)[C@H](O)[C@H](C)O1  point of departure (HepG2; oxidative stress, measured: reactive oxygen species; 6 h, distribution mode 2): 0.0977 µM
CC(=O)OCC[N+](C)(C)C  inhibition (THP-1; pyroptotic LDH release; 2 µM, 40 min, together with: LPS then nigericin): -1.32%
Cc1cccc(-c2[nH]c(CNc3ccccc3F)nc2-c2ccc3ncnn3c2)n1  viability (bone marrow CD138+ myeloma cells; XTT; 0.8 µM, mean of three patients): 20%
CCNC(=O)[C@H]1C[C@@H](n2cnc3c(N[C@H](CC)Cc4sccc4Cl)ccnc32)[C@H](O)[C@@H]1O  EC50 (HEK293T ATF4-FLuc reporter; ATF4 reporter gene, activator, luciferase reporter): 814 nM
COc1ccc2c(O[C@@H]3C[C@H]4C(=O)N[C@]5(C(=O)NS(=O)(=O)C6CC6)C[C@H]5/C=C\CCCCN(C)C(=O)[C@@H]4C3)cc(-c3nc(C(C)C)cs3)nc2c1C  inhibition (THP-1; pyroptotic LDH release; 2 µM, 40 min, together with: LPS then nigericin): 33.7%
Cn1cc(-c2ccc(-c3cncc(Cl)c3N3CCC4(CCNC4=O)CC3)cc2)cn1  log2 fold change (COLO 205; gene expression, microarray, measured: IER5 mRNA; concentration not given, 6 h; reference: untreated cells): 2.2
COc1ccc2c(N(C)c3ccc(/C(C)=N/OCCN)cc3)c3c(Cl)coc3nc2c1  inhibition of cell proliferation (NE_1.8; trypan blue exclusion; 1 µM, 72 h, steroid-reduced conditions): > 85%
COc1cc(/C=C/C(=O)N2CCC=CC2=O)cc(OC)c1OC  mRNA level (MDA-MB-468; qRT-PCR, measured: XIAP; 30 µM, 6 h; reference: time zero): 69 ± 8.9%
CC[C@@H](N)C(=O)O  inhibition (THP-1; pyroptotic LDH release; 2 µM, 40 min, together with: LPS then nigericin): 18.7%
Cn1cc(Nc2nccc(-c3ccc4c(c3)CN(C3COC3)CC[C@H]4NC(=O)c3cn(C(C)(C)C)nn3)n2)cn1  pathway activation z-score (mouse splenic B cells; measured: IL-8 signalling; 30 mg/kg, IgD-activated in vivo; reference: vehicle, direction not given): 3.27
CCn1cc(-c2cc(Cn3ccnc3)cc3c2CCN([C@H](c2cc(OC)ccn2)C2CC2)C3=O)c(C(F)(F)F)n1  EC50 (NOMO-1; cell growth, inhibitor; 120 h): 5660 nM
CCNC(=O)c1noc(-c2cc(C(C)C)c(O)cc2O)c1-c1ccc(CN2CCOCC2)cc1  MyBP-C level change (human iPSC cardiomyocytes; plate-normalised; concentration not given, hit retest; reference: vehicle controls, SDs below control): 6.77 SD
O=c1[nH]nc(OCCCc2ccc(Cl)cc2)c(NCc2cccnc2)c1Br  EC50 (HEK293T ATF4-FLuc reporter; ATF4 reporter gene, activator, luciferase reporter): 2400 nM
CCn1c(=O)c(-c2cc(NC(=O)Nc3ccccc3)c(F)cc2Br)cc2cnc(NC)cc21  inhibition (THP-1; pyroptotic LDH release; 2 µM, 40 min, together with: LPS then nigericin): -0.29%
Cc1nn(-c2nc3ccc(Cl)c(Cl)c3[nH]2)c(O)c1C1OC(=O)c2ccccc21 (stereo not shown)  IFNB1 mRNA level (RAW-ISG; RT-qPCR; 5 µM, 312 h, unit not given, together with: HT-DNA; reference: DMSO): 0.545 and 0.686 and 0.694
CC(=O)OCc1ccccc1  inhibition (THP-1; pyroptotic LDH release; 2 µM, 40 min, together with: LPS then nigericin): 5.79%
CCc1cnc(N2CCC(c3nc(COc4ccc(-n5cnnn5)cc4)cs3)CC2)nc1  EC50 (HEK293T ATF4-FLuc reporter; ATF4 reporter gene, activator, luciferase reporter): 3640 nM
O=C(C[C@@H](C(F)F)n1ccc(F)n1)N1CCC(O)(Cn2cnc3c(cnn3-c3ccc(F)cc3)c2=O)CC1  early apoptotic cells (annexin V+/PI-) (CHP-212 parental (wild-type USP7); annexin V-PI flow cytometry; 0.1 µM, 48 h): 11% and 11.8% and 10.4%
O=C(/C=C/C=C/C=C/C1CCCCC1)NC1=C[C@@](O)(/C=C/C=C/C=C/C(=O)NC2=C(O)CCC2=O)[C@@H]2O[C@@H]2C1=O  GI50 (HuH-6; cell growth, CellTiter-Glo; 78 h): 21000 nM
N#Cc1ccc2c(CN3CCOCC3)cc(-c3ccc([C@H]4CCC(=O)N4)cc3)nc2c1  mRNA level (THP-1; decreased, measured: IL6; 10 µM, together with: CML-HSA; reference: vehicle): decreased
COc1cc(CCC(=O)O)ccc1O  transepithelial electrical resistance (Caco-2/THP-1 co-culture; TEER; concentration not given, together with: LPS 250 ng/mL; reference: control): 83.1 ± 11.2%
CC(C)(c1ccc(O)cc1)c1ccc(O)cc1  G1 phase cells (HepG2 spheroids; Hoechst flow cytometry; 0.1 µM, 24 h): 71.8 ± 4.21%
Cc1cc(-c2ccccc2)n(-c2nc(-c3ccc(Cl)cc3)c3c(NC(=O)c4ccccc4)nnc-3[nH]2)n1  cell growth (OVCAR-8; SRB; 10 µM, NCI60 single-dose screen; reference: untreated): 102%
CC(C)NCC(O)c1ccc(O)c(O)c1 (stereo not shown)  sarcomere length (mouse ventricular cardiomyocytes; dose not given, 0.271 s): 1.8 µm
CCCC(=O)[O-].[Na+]  IL-1β level (coculture, Caco-2, THP-1; ELISA; 100 ng/mL, 8 h, together with: LPS, IFNγ, ATP; reference: untreated control): 6 ± 11.8 fold change
N#Cc1c(N)nc(SCc2csc(-c3ccc(Cl)cc3)n2)c(C#N)c1-c1ccc(OCCO)cc1  EC50 (HEK293T ATF4-FLuc reporter; ATF4 reporter gene, activator, luciferase reporter): 332 nM
COc1cc(-c2oc3cc(O)cc(O)c3c(=O)c2O)ccc1O  transepithelial electrical resistance (Caco-2/THP-1 co-culture; TEER; concentration not given, together with: LPS 50 ng/mL; reference: control): 82.1 ± 5.1%
COc1cc2c(cc1OC)C1CN(C)CCC1N=C2c1ccc(NS(=O)(=O)c2ccc(C)cc2)cc1 (stereo not shown)  EC50 (HEK293T ATF4-FLuc reporter; ATF4 reporter gene, activator, luciferase reporter): 2420 nM
CCCN1CCN(c2ccc3nc(-c4ccc5nc(-c6cc(OC)ccc6OC)[nH]c5c4)[nH]c3c2)CC1  growth percent (RXF 393; SRB; 10 µM, 48 h): 93.3%
CSc1cc(Oc2ccnc3[nH]c(=O)cnc23)ccc1NC(=O)Nc1cc(C(C)(C)C)nn1-c1ccccc1  phospho/total p53 ratio (patient-derived cell clone B (sample A); reverse phase protein array, measured: p53 pSer15; human; 1 µM, 4 h; reference: DMSO): 0.34
COc1cc(O)c2c(=O)c(O)c(-c3ccc(O)c(O)c3)oc2c1  IL-1β level (coculture, Caco-2, THP-1; ELISA; 50 ng/mL, 8 h, together with: LPS, IFNγ, ATP; reference: untreated control): 7.7 ± 1.3 fold change
